{"data": "Results collected from several papers", "note": "Lines come from different studies, so protocols differ. Numbers after ± are the reported error."}
{"SMILES": "O=c1[nH]c(=O)c(Cc2cccc(C(F)(F)F)c2)c([C@H]2CC[C@H](c3ccccc3)CC2)[nH]1", "system": "human, plasma", "conditions": "oral, 150 mg once daily, day 14, geometric mean", "Cmax": "169 ng/mL"}
{"SMILES": "CS(=O)(=O)Nc1ccc(C(=O)O[C@@H](Cc2c(Cl)c[n+]([O-])cc2Cl)c2ccc(OC(F)F)c(OCC3CC3)c2)cc1OCC1CC1", "system": "human, plasma", "conditions": "inhaled, 600 µg once daily, day 1, single-dose dry powder inhaler", "Cmax": "0.29 ng/mL"}
{"SMILES": "C[C@H]1CN(C2COC2)CCN1c1ccc(Nc2cc(-c3ccnc(N4CCn5c(cc6c5CC(C)(C)C6)C4=O)c3CO)cn(C)c2=O)nc1", "system": "cynomolgus monkey, male", "conditions": "oral, 10 mg/kg", "Cmax": "12.9 ng/mL"}
{"SMILES": "CC(C)[C@H](N)C(=O)NCCCS(=O)(=O)O", "system": "human, plasma", "conditions": "oral, 340 mg capsule, day 14, fasted, multiple dosing", "Cmax": "10400 ± 2880 ng/mL"}
{"SMILES": "C=CC(=O)N1CCC[C@@H](n2c(=O)n(-c3ccc(Oc4ccccc4)cc3)c3c(N)nccc32)C1", "system": "cynomolgus monkey, male", "conditions": "oral, 10 mg/kg", "Cmax": "4.8 ng/mL"}
{"SMILES": "CC(C)=CCC[C@](C)(O[C@@H]1O[C@H](CO)[C@@H](O)[C@H](O)[C@H]1O)[C@H]1CC[C@]2(C)[C@@H]1[C@H](O)C[C@@H]1[C@@]3(C)CC[C@H](O[C@@H]4O[C@H](CO)[C@@H](O)[C@H](O)[C@H]4O[C@@H]4O[C@H](CO)[C@@H](O)[C@H](O)[C@H]4O)C(C)(C)[C@@H]3CC[C@]12C", "system": "Sprague-Dawley rat, plasma", "conditions": "oral, 2000 mg/kg ginseng extract, diet with NUTRIOSE 2.5% for 2 weeks", "Cmax": "982 ± 456 ng/mL"}
{"SMILES": "O=C(O)C[C@H](O)C[C@H](O)/C=C/c1c(C2CC2)nc2ccccc2c1-c1ccc(F)cc1", "system": "male Sprague Dawley rat, control, plasma", "conditions": "oral, 2.5 mg/kg, geometric mean, together with: vehicle", "Cmax": "800 nM"}
{"SMILES": "CC(C)NC[C@@H](C(=O)N1CCN(c2ncnc3c2[C@H](C)C[C@H]3O)CC1)c1ccc(Cl)cc1", "system": "human, mild hepatic impairment (Child-Pugh), plasma", "conditions": "oral, 100 mg single dose, geometric mean", "Cmax": "53 ng/mL"}
{"SMILES": "CCN1CCN(c2ccc(Nc3cc(N(C)C(=O)Nc4c(Cl)c(OC)cc(OC)c4Cl)ncn3)cc2)CC1", "test": "LC-MS/MS", "system": "juvenile female Crl:WI(Han) rats, plasma", "conditions": "oral gavage, 1.0 mg/kg/day, postnatal day 17", "Cmax": "41.2 ng/mL"}
{"SMILES": "C=CC(N)CCC(=O)O (stereo not drawn)", "system": "male Sprague-Dawley rat, plasma", "conditions": "oral, 10 mg/kg, formulation 10, together with: Sar 200 mg/kg", "Cmax": "9480 ± 738 ng/mL"}
{"SMILES": "CO[C@H]1C[C@@H]2CC[C@@H](C)[C@@](O)(O2)C(=O)C(=O)N2CCCC[C@H]2C(=O)O[C@H]([C@H](C)C[C@@H]2CC[C@@H](O)[C@H](OC)C2)CC(=O)[C@H](C)/C=C(\\C)[C@@H](O)[C@@H](OC)C(=O)[C@H](C)C[C@H](C)/C=C/C=C/C=C/1C", "system": "human, whole blood", "conditions": "oral, 16 mg, without ketoconazole", "Cmax": "47.4 ng/mL"}
{"SMILES": "CC1=C2C[C@H]3[C@@H](CC[C@@H]4C[C@H](NS(C)(=O)=O)CC[C@@]43C)[C@@H]2CC[C@@]2(C1)O[C@@H]1C[C@H](C)CN[C@H]1[C@H]2C", "system": "patients, plasma", "conditions": "oral, 200 mg daily, day 22, cycle 1", "Cmax": "723 ng/mL"}
{"SMILES": "CS(=O)(=O)c1ccc(-c2cnc(N)c(-c3ccc(C(F)(F)F)nc3)c2)cc1", "system": "pregnant female Sprague-Dawley rat, plasma", "conditions": "oral, 10 mg/kg/day, gestation day 17", "Cmax": "2380 ng/mL"}
{"SMILES": "CCCCCCCCCCCCCCCCCCOP(=O)([O-])OC1CC[N+](C)(C)CC1", "system": "rhesus monkey, male, cerebrospinal fluid", "conditions": "oral, 7 mg/kg, single dose, mean of 3", "Cmax": "3.6 ng/mL"}
{"SMILES": "Cc1cc(Nc2cc3ncccc3c(N[C@@H]3C[C@H]4CC[C@@H](C3)N4CCC#N)n2)n[nH]1", "system": "beagle dog, male, plasma", "conditions": "oral, 10 mg/kg/day, last day of 39 weeks", "Cmax": "7.5 ng/mL"}
{"SMILES": "CCCC[C@H](NC(C)=O)C(=O)N[C@H]1CCC(=O)NC[C@@H](C(=O)N[C@@H](Cc2c[nH]c3ccccc23)C(N)=O)NC(=O)[C@H](CCCNC(=N)N)NC(=O)[C@@H](Cc2ccccc2)NC(=O)[C@H](Cc2c[nH]cn2)NC1=O", "system": "beagle dog, female, plasma", "conditions": "subcutaneous, 8.0 mg/kg daily, day 1", "Cmax": "615 ng/mL"}
{"SMILES": "CNCc1ccc(-c2[nH]c3cc(F)cc4c3c2CCNC4=O)cc1", "system": "human, fed high-fat meal, plasma", "conditions": "oral, 600 mg, single dose, arithmetic mean", "Cmax": "959 ng/mL"}
{"SMILES": "O=C(CCCCCCC(=O)Nc1ccccc1)NO", "system": "patients, serum", "conditions": "oral, 800 mg, cycle 1, together with: flavopiridol", "Cmax": "4800 nM"}
